{"data": "Assay results collected from several papers", "note": "A part holds a random share of what one study measured.", "chain of UniProt O15146 (whole entry, looked up)": "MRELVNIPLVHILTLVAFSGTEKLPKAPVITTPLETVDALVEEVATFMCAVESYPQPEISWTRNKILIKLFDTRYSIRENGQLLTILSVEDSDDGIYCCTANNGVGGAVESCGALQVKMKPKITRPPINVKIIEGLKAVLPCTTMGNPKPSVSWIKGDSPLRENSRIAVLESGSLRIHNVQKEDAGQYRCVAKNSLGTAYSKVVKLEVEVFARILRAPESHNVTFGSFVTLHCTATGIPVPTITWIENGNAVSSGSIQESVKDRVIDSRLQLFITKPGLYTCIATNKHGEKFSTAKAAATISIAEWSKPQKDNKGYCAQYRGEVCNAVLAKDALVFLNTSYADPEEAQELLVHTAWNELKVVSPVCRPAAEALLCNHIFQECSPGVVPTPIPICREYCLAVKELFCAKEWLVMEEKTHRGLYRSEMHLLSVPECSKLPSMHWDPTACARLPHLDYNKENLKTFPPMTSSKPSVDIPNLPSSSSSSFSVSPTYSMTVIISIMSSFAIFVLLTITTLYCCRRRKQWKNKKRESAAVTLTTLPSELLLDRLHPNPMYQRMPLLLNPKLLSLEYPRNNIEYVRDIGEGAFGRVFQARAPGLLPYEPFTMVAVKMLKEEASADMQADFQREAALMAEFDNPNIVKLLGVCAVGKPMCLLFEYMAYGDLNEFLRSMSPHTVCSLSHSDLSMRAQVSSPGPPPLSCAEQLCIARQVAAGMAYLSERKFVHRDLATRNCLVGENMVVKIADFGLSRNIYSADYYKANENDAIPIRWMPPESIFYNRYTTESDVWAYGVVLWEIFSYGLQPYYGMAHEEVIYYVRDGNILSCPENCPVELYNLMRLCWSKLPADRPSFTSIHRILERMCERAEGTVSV", "chain of UniProt Q92630 (whole entry, looked up)": "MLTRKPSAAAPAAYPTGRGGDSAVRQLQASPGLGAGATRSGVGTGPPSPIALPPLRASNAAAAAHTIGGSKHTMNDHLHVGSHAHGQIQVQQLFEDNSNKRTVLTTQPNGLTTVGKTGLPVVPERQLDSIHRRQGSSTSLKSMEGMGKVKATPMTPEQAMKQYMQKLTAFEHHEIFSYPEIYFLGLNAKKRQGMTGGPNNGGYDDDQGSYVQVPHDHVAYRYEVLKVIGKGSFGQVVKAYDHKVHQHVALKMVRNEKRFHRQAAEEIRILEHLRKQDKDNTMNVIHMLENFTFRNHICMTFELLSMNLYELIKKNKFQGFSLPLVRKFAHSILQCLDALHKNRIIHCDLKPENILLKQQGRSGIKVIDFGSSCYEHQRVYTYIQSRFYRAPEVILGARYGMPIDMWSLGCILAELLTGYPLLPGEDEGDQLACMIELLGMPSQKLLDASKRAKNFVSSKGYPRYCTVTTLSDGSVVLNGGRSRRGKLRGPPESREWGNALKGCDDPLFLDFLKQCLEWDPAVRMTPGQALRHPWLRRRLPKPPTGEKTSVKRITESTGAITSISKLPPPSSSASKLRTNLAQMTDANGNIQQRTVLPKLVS", "chain of UniProt Q32MK0 (whole entry, looked up)": "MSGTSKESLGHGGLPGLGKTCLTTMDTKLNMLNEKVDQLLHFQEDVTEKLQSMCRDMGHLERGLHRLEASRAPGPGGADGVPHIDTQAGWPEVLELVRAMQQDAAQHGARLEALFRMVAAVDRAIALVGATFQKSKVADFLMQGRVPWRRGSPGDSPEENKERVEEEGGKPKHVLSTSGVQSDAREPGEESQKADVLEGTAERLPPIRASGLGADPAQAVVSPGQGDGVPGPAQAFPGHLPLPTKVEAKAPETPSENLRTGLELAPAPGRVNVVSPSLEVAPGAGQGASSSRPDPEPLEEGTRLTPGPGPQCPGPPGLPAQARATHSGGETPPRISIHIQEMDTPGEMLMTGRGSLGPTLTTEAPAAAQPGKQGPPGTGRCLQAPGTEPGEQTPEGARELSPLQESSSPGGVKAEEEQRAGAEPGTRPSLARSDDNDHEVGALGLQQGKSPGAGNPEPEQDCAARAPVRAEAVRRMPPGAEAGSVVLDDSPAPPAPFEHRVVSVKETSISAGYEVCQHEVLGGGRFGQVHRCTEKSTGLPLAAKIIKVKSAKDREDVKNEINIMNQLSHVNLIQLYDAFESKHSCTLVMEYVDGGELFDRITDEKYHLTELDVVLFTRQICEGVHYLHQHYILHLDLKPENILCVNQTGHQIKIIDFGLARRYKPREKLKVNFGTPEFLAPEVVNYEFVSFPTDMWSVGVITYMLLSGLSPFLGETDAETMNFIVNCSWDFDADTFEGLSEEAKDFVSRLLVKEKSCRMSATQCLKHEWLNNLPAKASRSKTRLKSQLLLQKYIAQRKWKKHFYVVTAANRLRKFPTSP", "chain of UniProt P42336 (whole entry, unmodified, looked up)": "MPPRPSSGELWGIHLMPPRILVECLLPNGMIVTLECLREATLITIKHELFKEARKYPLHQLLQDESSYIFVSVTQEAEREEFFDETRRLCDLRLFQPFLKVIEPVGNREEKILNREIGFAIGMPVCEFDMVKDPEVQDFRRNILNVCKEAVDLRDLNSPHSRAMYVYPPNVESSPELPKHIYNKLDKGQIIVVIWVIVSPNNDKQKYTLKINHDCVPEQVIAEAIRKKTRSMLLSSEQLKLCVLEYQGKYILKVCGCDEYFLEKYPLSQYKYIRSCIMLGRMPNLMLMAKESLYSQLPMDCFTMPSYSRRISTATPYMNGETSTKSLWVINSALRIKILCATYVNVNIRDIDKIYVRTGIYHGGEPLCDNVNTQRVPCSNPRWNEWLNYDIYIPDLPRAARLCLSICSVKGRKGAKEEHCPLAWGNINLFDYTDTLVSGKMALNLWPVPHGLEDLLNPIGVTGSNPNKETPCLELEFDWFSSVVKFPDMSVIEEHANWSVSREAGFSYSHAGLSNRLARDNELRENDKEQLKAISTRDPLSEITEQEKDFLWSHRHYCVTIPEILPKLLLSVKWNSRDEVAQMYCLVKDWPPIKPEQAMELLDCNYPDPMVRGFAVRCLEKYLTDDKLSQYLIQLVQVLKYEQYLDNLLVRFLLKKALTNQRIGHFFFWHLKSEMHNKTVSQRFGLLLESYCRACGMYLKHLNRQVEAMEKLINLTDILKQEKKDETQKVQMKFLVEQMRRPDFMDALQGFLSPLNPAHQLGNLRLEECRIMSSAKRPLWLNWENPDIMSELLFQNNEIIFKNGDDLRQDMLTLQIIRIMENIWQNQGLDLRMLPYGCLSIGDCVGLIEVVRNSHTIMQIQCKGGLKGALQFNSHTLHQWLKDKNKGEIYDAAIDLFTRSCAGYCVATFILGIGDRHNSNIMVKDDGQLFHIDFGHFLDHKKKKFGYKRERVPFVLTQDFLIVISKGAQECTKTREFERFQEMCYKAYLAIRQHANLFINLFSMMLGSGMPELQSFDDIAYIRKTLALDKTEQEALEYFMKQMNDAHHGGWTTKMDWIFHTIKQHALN"}
{"data": "Set 1", "target": "Beta-1 adrenergic receptor (ADRB1, Homo sapiens, UniProt P08588)", "action": "antagonist", "chain of UniProt P08588 (whole entry, looked up)": "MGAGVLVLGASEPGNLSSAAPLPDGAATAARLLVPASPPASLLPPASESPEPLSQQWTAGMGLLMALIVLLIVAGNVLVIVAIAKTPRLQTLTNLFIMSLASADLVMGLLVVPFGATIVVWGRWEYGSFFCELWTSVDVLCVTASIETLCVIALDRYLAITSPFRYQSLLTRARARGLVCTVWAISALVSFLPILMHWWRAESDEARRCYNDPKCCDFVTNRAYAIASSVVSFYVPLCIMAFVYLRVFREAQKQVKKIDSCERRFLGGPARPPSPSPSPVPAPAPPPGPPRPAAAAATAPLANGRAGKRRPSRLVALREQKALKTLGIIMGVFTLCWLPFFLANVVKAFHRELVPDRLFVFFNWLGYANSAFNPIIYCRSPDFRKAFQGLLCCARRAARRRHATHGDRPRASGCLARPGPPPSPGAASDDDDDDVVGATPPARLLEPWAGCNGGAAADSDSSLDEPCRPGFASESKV"}
{"Structure (SMILES)": "c1cc(N2CCOCC2)ccc1-c1cc(-c2cn[nH]c2)c2cncn2c1", "IC50 [µM]": "≥ 100"}
{"Structure (SMILES)": "COc1ccccc1N1CCN(C(=O)c2ccc3[nH]c(C)c(C)c3c2)CC1", "IC50 [µM]": "≥ 100"}
{"Structure (SMILES)": "COc1ccc(-c2ccc3ncc4c(c3c2)n(-c2ccc(N3CCNCC3)c(C(F)(F)F)c2)c(=O)n4C)cn1", "IC50 [µM]": "≥ 100"}
{"data": "Set 2", "target": "Histone acetyltransferase KAT6A, both winged helices, GST fusion (KAT6A, Homo sapiens, UniProt Q92794, residues 1-181)", "method": "protein binding microarray", "form": "double-stranded DNA, one strand shown", "matrix": "in vitro", "tested at": "not given", "setting": "8-mer, flanks averaged, mean of 2 arrays, mostly near background", "baseline": "not given", "direction": "higher = stronger binding", "Construct (chain)": "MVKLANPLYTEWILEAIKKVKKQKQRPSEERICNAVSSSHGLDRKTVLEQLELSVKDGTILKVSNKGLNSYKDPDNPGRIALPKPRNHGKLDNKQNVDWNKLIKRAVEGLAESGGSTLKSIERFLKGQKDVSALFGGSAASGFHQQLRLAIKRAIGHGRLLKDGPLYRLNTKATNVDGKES"}
{"Sequence": "CGTTCCAG", "E-score": -0.158}
{"Sequence": "AACCGGTG", "E-score": 0.178}
{"Sequence": "GCTTGCAC", "E-score": -0.0495}
{"Sequence": "CTTCCCCA", "E-score": -0.13}
{"Sequence": "AAGTGACT", "E-score": -0.0993}
{"Sequence": "AAACTATA", "E-score": -0.113}
{"Sequence": "CCTGTACC", "E-score": -0.108}
{"Sequence": "CCTGGGCG", "E-score": -0.00209}
{"data": "Set 3", "target": "Interferon regulatory factor 3, full length, phosphomimetic (IRF3, Homo sapiens, UniProt Q14653, residues 1-427, S386D/S396D/S398D/S402D/T404D/S405D)", "method": "protein-binding microarray", "form": "double-stranded DNA, one strand shown", "matrix": "in vitro", "tested at": "2540 nM top", "setting": "60-bp whole probe", "added": "salmon DNA 0.4 mg/ml", "baseline": "random background probes", "direction": "higher = stronger binding", "all sequences stand within": "GCCTAGCAC … GTCTTGATTCGCTTGACGCTGCTG", "Residues (chain)": "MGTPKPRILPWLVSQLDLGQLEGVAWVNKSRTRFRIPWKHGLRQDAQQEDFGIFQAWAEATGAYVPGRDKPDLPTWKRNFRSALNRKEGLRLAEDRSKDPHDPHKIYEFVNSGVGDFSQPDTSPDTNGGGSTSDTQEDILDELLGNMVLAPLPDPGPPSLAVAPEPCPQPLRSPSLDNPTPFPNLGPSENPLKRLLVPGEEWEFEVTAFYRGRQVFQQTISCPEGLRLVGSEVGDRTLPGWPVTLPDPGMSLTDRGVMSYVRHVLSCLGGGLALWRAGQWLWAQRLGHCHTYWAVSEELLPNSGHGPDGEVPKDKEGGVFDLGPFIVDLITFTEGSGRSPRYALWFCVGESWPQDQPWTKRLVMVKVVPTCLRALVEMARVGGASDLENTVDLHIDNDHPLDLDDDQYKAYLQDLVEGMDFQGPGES"}
{"Sequence": "CTAGATTTCAGTTTCGATTAGTGCTAG", "fitted relative affinity [z-score]": 5.94}
{"Sequence": "TTAGATGTCGGGACTGGATTAGTGCTA", "fitted relative affinity [z-score]": -0.233}
{"Sequence": "TTAGGACTGGGGTATCGGTGAGTGCTA", "fitted relative affinity [z-score]": -0.574}
{"Sequence": "GACGGTATCGGGTATCGGGAGGTGCTA", "fitted relative affinity [z-score]": 1.72}
{"Sequence": "GACCGTTTCCTTCTCCTGACGTGCTAG", "fitted relative affinity [z-score]": 7.97}
{"Sequence": "TTAGAAGTGAGTATCGATTAGTGCTAG", "fitted relative affinity [z-score]": -0.0423}
{"Sequence": "GACGGTATCGACACTGGGAACGTGCTA", "fitted relative affinity [z-score]": 0.741}
{"Sequence": "TTAGATTTCGGTTTTCGATTAGTGCTA", "fitted relative affinity [z-score]": 7.05}
{"data": "Set 4", "Structure (SMILES)": "CN(c1ccnc(CNc2nc(Nc3ccc4c(c3)CC(=O)N4)ncc2C(F)(F)F)n1)S(C)(=O)=O", "tested at": "1 µM"}
{"target": "Receptor-type tyrosine-protein kinase FLT3 (FLT3, Homo sapiens, UniProt P36888, F691L/ITD)", "observed": "cell-free assay", "method": "competition with immobilised ligand", "remaining binding [%]": 0}
{"target": "Eukaryotic translation initiation factor 2-alpha kinase 1 (EIF2AK1, Homo sapiens, UniProt Q9BQI3)", "observed": "cell-free assay", "method": "competition with immobilised ligand", "remaining binding [%]": 87}
{"target": "Serine/threonine-protein kinase 32B (STK32B, Homo sapiens, UniProt Q9NY57)", "observed": "cell-free assay", "method": "competition with immobilised ligand", "remaining binding [%]": 100}
{"target": "Serine/threonine-protein kinase MRCK gamma (CDC42BPG, Homo sapiens, UniProt Q6DT37)", "method": "competition binding", "remaining binding [%]": 93}
{"target": "Mitogen-activated protein kinase 1 (MAPK1, Homo sapiens, UniProt P28482)", "observed": "cell-free assay", "method": "competition with immobilised ligand", "remaining binding [%]": 70}
{"target": "Serine/threonine-protein kinase 17A (STK17A, Homo sapiens, UniProt Q9UEE5)", "observed": "cell-free assay", "method": "competition with immobilised ligand", "remaining binding [%]": 11}
{"target": "Myosin light chain kinase (MYLK3, Homo sapiens, UniProt Q32MK0)", "observed": "cell-free assay", "method": "competition with immobilised ligand", "remaining binding [%]": 100}
{"target": "Dual specificity tyrosine-phosphorylation-regulated kinase 2 (DYRK2, Homo sapiens, UniProt Q92630)", "observed": "cell-free assay", "method": "competition with immobilised ligand", "remaining binding [%]": 37}
{"target": "Muscle, skeletal receptor tyrosine-protein kinase (MUSK, Homo sapiens, UniProt O15146)", "observed": "cell-free assay", "method": "competition with immobilised ligand", "remaining binding [%]": 92}
{"target": "Phosphatidylinositol 4,5-bisphosphate 3-kinase catalytic subunit alpha isoform (PIK3CA, Homo sapiens, UniProt P42336, I800L)", "observed": "cell-free assay", "method": "competition with immobilised ligand", "remaining binding [%]": 84}
{"target": "5'-AMP-activated protein kinase catalytic subunit alpha-1 (PRKAA1, Homo sapiens, UniProt Q13131)", "observed": "cell-free assay", "method": "competition with immobilised ligand", "remaining binding [%]": 80}
{"target": "Calcium/calmodulin-dependent protein kinase type II subunit gamma (CAMK2G, Homo sapiens, UniProt Q13555)", "observed": "cell-free assay", "method": "competition with immobilised ligand", "remaining binding [%]": 100}
{"target": "Ribosomal protein S6 kinase alpha-6, N-terminal kinase domain (RPS6KA6, Homo sapiens, UniProt Q9UK32)", "observed": "cell-free assay", "method": "competition with immobilised ligand", "remaining binding [%]": 4.6}
{"target": "Casein kinase I isoform gamma-3 (CSNK1G3, Homo sapiens, UniProt Q9Y6M4)", "observed": "cell-free assay", "method": "competition with immobilised ligand", "remaining binding [%]": 100}
{"note": "For quick reference, copied from above (set 2):"}
{"Sequence": "GCTTGCAC", "E-score": -0.0495}
{"Sequence": "CTTCCCCA", "E-score": -0.13}
